{"data": "Measurements from different studies", "Oprk1": "Kappa-type opioid receptor (Oprk1, Rattus norvegicus, UniProt P34975)", "note": "Protocols differ between the studies behind these lines. “And” joins repeats or separate records; there may be more than shown. Numbers after ± are the reported error."}
{"Structure (SMILES)": "CC(=O)N[C@H](CCCNC(=N)N)C(=O)N[C@@H](Cc1ccc(O)cc1)C(=O)N[C@@H](CCCNC(=N)NC(=O)NCCCCN)C(=O)N[C@@H](CC(C)C)C(=O)N[C@@H](CCCNC(=N)N)C(=O)N[C@@H](Cc1ccc(O)cc1)C(N)=O", "target": "NPY1R (Homo sapiens, UniProt P25929)", "assay": "ligand displacement, radioligand", "Ki": "> 5000 nM"}
{"Structure (SMILES)": "CCCc1ccc2c(c1)sc(=O)n2CCCCCCN1CCCCCC1", "target": "Sigmar1 (Rattus norvegicus, UniProt Q9R0C9)", "assay": "binding, radioligand binding", "system": "rat liver membranes", "conditions": "together with: [3H](+)-pentazocine 5 nM", "Ki": "6.3 ± 0.9 nM"}
{"Structure (SMILES)": "COC(=O)N(C)[C@@H](Cc1ccccc1)C(=O)N[C@@H](Cc1ccccc1)C(=O)N[C@@H](CC1CCCCC1)C(=O)N[C@@H](CCCNC(=N)N)C(=O)N[C@@H](CC(C)C)C(=O)N[C@@H](CCCNC(=N)N)C(=O)N[C@@H](CCCNC(=N)N)C(=O)N[C@H](C)C(=O)N[C@@H](CCCNC(=N)N)C(=O)N1CCC[C@H]1C(=O)N[C@@H](CCCCN)C(N)=O", "target": "Oprk1", "assay": "ligand displacement, radioligand", "Ki": "3.6 nM"}
{"Structure (SMILES)": "COCCN1COc2c(cc3c4c(c(=O)oc3c2C)CCC4)C1", "target": "ache (Electrophorus electricus, UniProt O42275)", "assay": "enzyme activity, inhibitor", "Ki": "270 nM"}
{"Structure (SMILES)": "CC[C@H](C)[C@H](NC(=O)[C@@H]1CSSC[C@H](NC(=O)[C@H](Cc2ccc(O)cc2)NC(=O)CNC(C)=O)C(=O)N[C@@H](CO)C(=O)N[C@@H](CCCNC(=N)N)C(=O)N[C@@H](CO)C(=O)N[C@@H](Cc2ccc(O)cc2)C(=O)N2CCC[C@H]2C(=O)N2CCC[C@H]2C(=O)N[C@@H](C(C)C)C(=O)N1)C(=O)N1CCC[C@H]1C(=O)N[C@@H](CC(=O)O)C(N)=O", "target": "Mannan-binding lectin serine protease 2 (Homo sapiens, UniProt O00187)", "assay": "enzyme activity, inhibitor", "Ki": "70 nM"}
{"Structure (SMILES)": "CC[C@H](C)[C@H](NC(=O)[C@H](CNC(=O)[C@@H]1CCCN1C(=O)[C@H](CCCNC(=N)N)NC(=O)[C@@H](N)CCCNC(=N)N)Cc1ccc(O)cc1)C(=O)N[C@@H](CC(C)C)C(=O)O", "target": "NTSR2 (Homo sapiens, UniProt O95665)", "assay": "ligand displacement, radioligand", "conditions": "cell membranes", "Ki": "5400 nM"}
{"Structure (SMILES)": "N=C(N)NCCC[C@@H]1NC(=O)[C@@H](NC(=O)[C@H](Cc2ccccc2)NC(=O)CNC(=O)CNC(=O)[C@H](Cc2ccc(O)cc2)NCc2ccccc2)CC(=O)NC[C@@H](C(=O)N[C@@H](CCCNC(=N)N)C(=O)N2CCC[C@H]2C(=O)N[C@@H](CCCCN)C(N)=O)NC(=O)[C@H](CCCNC(=N)N)NC1=O", "target": "Oprk1", "assay": "cell-free assay", "Ki": "410 nM"}
{"Structure (SMILES)": "N[C@@H]1C[C@H]1c1ccccc1 (racemic)", "target": "Drd2 (Rattus norvegicus, UniProt P61169)", "Ki": "58700 ± 5910 nM"}
{"Structure (SMILES)": "CC[C@H](C)[C@H](NC(=O)CN)C(=O)N[C@H](C(=O)N[C@@H](CC(N)=O)C(=O)N[C@H](C(=O)N[C@@H](CC(C)C)C(=O)N[C@@H](CCC(N)=O)C(=O)N[C@@H](CCC(N)=O)C(=O)N[C@@H](Cc1ccc(O)cc1)C(=O)N[C@@H](Cc1ccc(O)cc1)C(=O)N[C@H]1CSSC[C@@H]2NC(=O)[C@H](CCC(N)=O)NC(=O)[C@H](CCC(N)=O)NC(=O)CNC(=O)[C@H](CCC(N)=O)NC(=O)[C@H]([C@@H](C)O)NC(=O)[C@H](CO)NC(=O)[C@@H]3CSSC[C@H](NC(=O)[C@H](CCC(N)=O)NC(=O)CNC(=O)CNC(=O)[C@H](CCC(N)=O)NC(=O)[C@H](C(C)C)NC(=O)[C@H](CCC(N)=O)NC1=O)C(=O)N[C@@H](C)C(=O)N[C@@H](C(C)C)C(=O)N[C@@H](CC(C)C)C(=O)N[C@@H](CO)C(=O)N[C@@H](CSSC[C@@H](C(=O)N[C@@H](CCC(N)=O)C(=O)N[C@@H](CCC(N)=O)C(=O)N[C@@H](CCC(N)=O)C(=O)N[C@@H](CCC(N)=O)C(N)=O)NC2=O)C(=O)N[C@@H](CC(C)C)C(=O)N1CCC[C@H]1C(=O)N[C@@H](CCC(N)=O)C(=O)N[C@@H](CCC(=O)O)C(=O)N[C@@H](CCC(=O)O)C(=O)N[C@@H](CCC(N)=O)C(=O)N[C@@H]([C@@H](C)CC)C(=O)NCC(=O)N[C@@H](CCC(N)=O)C(=O)N3)[C@@H](C)O)[C@@H](C)CC", "target": "MC1R (Homo sapiens, UniProt Q01726)", "system": "HEK-293T transfected", "conditions": "2 h, 37 °C, together with: Eu-NDP-MSH", "Ki": "> 5000 nM"}
{"Structure (SMILES)": "CC(C)[C@H](NC(=O)c1ccc(CNc2nc3c(c(=O)[nH]2)CCC3)cc1)C(=O)NC1COC1", "target": "Collagenase 3 (MMP13, Homo sapiens, UniProt P45452)", "assay": "enzyme activity, inhibitor", "Ki": "10 nM and 10.3 nM"}
{"note": "Excerpt of the above:"}
{"Structure (SMILES)": "COCCN1COc2c(cc3c4c(c(=O)oc3c2C)CCC4)C1", "target": "ache (Electrophorus electricus, UniProt O42275)", "assay": "enzyme activity, inhibitor", "Ki": "270 nM"}
{"Structure (SMILES)": "CC[C@H](C)[C@H](NC(=O)[C@@H]1CSSC[C@H](NC(=O)[C@H](Cc2ccc(O)cc2)NC(=O)CNC(C)=O)C(=O)N[C@@H](CO)C(=O)N[C@@H](CCCNC(=N)N)C(=O)N[C@@H](CO)C(=O)N[C@@H](Cc2ccc(O)cc2)C(=O)N2CCC[C@H]2C(=O)N2CCC[C@H]2C(=O)N[C@@H](C(C)C)C(=O)N1)C(=O)N1CCC[C@H]1C(=O)N[C@@H](CC(=O)O)C(N)=O", "target": "Mannan-binding lectin serine protease 2 (Homo sapiens, UniProt O00187)", "assay": "enzyme activity, inhibitor", "Ki": "70 nM"}
